Published values from different studies.
Values joined by “and” are separate records of one study, mostly repeats; a detail may differ. Numbers after ± are the reported error.
UniProt P04775, sequence (whole entry, looked up): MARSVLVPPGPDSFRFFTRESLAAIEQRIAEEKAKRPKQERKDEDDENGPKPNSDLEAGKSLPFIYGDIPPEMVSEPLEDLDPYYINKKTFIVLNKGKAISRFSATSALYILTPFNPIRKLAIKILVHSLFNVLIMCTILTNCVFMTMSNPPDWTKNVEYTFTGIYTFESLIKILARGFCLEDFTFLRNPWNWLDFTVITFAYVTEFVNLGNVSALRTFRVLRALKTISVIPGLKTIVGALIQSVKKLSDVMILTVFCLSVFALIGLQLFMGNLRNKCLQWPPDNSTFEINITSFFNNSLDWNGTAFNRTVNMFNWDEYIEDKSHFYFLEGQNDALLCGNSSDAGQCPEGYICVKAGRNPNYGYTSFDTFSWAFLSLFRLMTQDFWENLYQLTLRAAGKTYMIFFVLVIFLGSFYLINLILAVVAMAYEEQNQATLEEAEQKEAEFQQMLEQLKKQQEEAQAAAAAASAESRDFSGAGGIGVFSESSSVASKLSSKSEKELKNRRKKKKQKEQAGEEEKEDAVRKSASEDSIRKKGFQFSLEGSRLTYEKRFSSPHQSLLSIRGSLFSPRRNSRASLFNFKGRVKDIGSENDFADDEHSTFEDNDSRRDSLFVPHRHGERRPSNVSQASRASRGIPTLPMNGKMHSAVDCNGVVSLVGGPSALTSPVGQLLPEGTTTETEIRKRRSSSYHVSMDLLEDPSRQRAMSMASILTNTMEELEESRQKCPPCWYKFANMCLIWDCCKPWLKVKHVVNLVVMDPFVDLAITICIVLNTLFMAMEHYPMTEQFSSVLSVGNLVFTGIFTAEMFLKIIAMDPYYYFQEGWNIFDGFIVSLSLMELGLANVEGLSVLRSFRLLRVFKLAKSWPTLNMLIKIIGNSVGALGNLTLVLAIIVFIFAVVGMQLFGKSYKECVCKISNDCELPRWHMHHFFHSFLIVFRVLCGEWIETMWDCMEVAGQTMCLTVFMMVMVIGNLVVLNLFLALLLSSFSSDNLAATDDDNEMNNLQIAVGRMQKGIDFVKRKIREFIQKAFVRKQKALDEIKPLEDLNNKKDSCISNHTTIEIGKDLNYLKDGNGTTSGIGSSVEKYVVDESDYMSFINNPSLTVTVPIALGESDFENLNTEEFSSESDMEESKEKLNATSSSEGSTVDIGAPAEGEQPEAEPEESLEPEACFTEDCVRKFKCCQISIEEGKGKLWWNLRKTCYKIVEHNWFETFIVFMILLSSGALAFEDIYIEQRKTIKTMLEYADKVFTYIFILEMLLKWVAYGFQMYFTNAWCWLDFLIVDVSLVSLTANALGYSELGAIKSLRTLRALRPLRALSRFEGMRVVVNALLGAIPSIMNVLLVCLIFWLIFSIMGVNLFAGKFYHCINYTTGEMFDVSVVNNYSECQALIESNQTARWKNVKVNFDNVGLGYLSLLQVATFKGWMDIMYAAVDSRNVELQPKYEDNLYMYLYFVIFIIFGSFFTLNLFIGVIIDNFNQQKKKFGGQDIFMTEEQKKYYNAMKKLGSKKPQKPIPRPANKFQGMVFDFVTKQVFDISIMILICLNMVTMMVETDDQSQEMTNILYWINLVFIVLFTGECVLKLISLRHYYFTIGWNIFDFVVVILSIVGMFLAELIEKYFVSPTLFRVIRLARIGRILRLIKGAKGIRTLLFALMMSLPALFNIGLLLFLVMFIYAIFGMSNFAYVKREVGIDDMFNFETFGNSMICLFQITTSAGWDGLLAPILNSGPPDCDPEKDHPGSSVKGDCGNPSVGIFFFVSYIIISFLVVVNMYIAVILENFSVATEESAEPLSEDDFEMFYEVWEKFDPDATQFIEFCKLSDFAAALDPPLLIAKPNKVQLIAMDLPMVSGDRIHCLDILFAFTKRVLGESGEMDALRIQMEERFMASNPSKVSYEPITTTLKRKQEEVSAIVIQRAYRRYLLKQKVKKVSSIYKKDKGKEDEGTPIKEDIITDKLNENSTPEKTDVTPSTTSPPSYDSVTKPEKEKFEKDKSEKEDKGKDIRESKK
UniProt Q8IWT6, sequence (whole entry, unmodified, looked up): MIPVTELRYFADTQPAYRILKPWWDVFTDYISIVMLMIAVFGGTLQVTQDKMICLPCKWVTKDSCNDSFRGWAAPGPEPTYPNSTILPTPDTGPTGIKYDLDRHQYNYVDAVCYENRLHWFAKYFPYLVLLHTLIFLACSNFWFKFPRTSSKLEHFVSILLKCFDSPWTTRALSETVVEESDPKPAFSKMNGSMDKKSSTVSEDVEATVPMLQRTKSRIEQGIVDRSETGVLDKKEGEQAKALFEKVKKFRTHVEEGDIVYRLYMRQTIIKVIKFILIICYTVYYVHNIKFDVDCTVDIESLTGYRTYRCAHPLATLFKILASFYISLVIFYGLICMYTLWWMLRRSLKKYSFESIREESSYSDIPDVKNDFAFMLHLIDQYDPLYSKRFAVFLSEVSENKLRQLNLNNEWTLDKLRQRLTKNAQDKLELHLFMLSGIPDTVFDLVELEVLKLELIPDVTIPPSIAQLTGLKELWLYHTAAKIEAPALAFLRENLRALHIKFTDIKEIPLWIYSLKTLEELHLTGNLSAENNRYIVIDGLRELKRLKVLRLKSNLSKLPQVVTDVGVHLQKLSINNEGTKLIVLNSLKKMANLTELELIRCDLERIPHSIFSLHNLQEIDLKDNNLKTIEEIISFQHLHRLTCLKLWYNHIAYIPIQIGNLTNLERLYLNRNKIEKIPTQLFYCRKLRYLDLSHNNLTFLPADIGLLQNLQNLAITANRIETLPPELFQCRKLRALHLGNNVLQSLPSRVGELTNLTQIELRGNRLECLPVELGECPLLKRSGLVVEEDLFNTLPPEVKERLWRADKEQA
UniProt Q14164, sequence (whole entry, looked up): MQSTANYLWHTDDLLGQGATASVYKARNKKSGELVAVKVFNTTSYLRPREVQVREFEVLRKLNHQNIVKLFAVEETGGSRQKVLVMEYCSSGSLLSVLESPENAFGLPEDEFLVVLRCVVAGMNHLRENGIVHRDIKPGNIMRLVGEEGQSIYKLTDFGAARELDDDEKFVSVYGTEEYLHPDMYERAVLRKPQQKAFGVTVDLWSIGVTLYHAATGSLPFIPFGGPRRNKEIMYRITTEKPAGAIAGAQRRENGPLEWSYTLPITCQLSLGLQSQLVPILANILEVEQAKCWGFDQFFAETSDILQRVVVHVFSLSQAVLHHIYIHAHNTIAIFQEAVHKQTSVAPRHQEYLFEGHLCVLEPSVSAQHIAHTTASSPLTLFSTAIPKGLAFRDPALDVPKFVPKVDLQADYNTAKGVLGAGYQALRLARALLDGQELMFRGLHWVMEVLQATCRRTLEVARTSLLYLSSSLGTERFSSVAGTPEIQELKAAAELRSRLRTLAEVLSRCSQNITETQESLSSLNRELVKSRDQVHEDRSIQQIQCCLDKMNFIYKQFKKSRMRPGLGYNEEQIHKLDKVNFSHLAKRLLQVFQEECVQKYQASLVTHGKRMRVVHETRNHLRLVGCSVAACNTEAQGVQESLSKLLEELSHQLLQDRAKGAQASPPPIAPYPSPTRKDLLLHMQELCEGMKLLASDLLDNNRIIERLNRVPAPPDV
UniProt P41143, sequence (whole entry, looked up): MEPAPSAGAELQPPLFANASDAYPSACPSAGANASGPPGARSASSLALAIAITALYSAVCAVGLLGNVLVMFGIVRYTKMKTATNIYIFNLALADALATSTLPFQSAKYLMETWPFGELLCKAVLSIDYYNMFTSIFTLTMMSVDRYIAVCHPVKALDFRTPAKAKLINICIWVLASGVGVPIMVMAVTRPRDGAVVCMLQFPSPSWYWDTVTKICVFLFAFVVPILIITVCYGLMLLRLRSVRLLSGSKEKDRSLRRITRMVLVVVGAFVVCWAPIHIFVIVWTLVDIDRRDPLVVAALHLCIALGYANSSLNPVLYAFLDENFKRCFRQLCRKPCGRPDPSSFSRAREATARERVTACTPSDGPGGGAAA
UniProt P28566, sequence (whole entry, looked up): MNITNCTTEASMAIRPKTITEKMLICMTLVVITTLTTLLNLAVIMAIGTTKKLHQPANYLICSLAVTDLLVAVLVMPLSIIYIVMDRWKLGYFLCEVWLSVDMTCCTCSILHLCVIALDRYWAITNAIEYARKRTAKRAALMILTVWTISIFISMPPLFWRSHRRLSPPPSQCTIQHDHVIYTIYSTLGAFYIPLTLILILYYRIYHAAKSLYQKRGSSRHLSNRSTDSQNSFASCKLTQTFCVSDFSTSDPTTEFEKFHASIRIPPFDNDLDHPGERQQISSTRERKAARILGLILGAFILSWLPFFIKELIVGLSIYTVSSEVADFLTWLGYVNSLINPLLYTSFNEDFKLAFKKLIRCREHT
UniProt P51451, sequence (whole entry, looked up): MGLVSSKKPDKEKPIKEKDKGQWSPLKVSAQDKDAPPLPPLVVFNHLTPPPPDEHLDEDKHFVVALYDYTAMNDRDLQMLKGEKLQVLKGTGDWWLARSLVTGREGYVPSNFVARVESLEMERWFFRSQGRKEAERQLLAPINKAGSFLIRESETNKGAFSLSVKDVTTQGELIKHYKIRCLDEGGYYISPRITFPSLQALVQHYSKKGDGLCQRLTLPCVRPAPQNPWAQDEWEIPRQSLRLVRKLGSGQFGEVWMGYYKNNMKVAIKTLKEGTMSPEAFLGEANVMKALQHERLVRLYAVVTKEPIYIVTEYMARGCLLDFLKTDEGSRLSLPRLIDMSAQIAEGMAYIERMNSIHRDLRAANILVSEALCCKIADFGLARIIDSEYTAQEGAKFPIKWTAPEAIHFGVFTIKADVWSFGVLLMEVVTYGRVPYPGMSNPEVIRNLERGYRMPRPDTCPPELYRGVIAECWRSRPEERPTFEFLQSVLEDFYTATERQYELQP

Structure (SMILES) | tested on | test | system | setting | how to read | endpoint | result
O=C(Nc1cccc2c(=O)cc(-c3nnn[nH]3)oc12)c1ccc(OCCCCc2ccccc2)cc1 | LRRC8A/LRRC8C (Homo sapiens, UniProt Q8IWT6+Q8TDW0, M48D/T48D) | ion current, whole-cell patch clamp | HCT LRRC8-/- cells | 1 µM, -100 mV, T48D/M48D heteromers | – | inhibition | 0.424% and 4.74% and 3.66%
c1ccc(OC[C@@H]2CN(CCN3CCc4ccccc43)CCO2)cc1 | HTR1E (Homo sapiens, UniProt P28566) | radioligand binding | – | concentration not given, with: [3H]5-HT | – | inhibition | -13.8%
CC(C)C[C@H](NC(=O)C[C@H](O)[C@H](CC(C)C)NC(=O)[C@H](Cc1c[nH]cn1)NC(=O)CNC(=O)[C@@H](NC(=O)[C@H](C)NC(=O)[C@H](Cc1c[nH]c2ccccc12)NC(=O)[C@H](CCC(N)=O)NC(=O)[C@@H](Cc1ccccc1)NC(=O)COCCOCCNC(=O)CCC(C(=O)O)N1CCN(CC(=O)O)CCN(CC(=O)O)CCN(CC(=O)O)CC1)C(C)C)C(N)=O (stereo partly drawn) [lutetium-177 labelled] | – | – | BALB/c nu/nu mice, skin | intravenous, 750 pmol, 1 h, with: PA 300 µg | – | tissue uptake | 0.4 ± 0.1 %ID/g
O=C(NO)c1ccc(CN2CCCCc3ccccc32)c(F)c1 | OPRD1 (Homo sapiens, UniProt P41143) | radioligand binding, PDSP radioligand binding | – | 10 µM | – | inhibition | 16.2%
[2H]c1cc(C)c(NC(=O)c2cnc(Nc3cc(N4CCCCC4)nc(C)n3)s2)c(Cl)c1 | BLK (Homo sapiens, UniProt P51451) | – | – | 0.01 µM | – | inhibition | > 90%
COc1c(O)c(C)cc2c1C(=O)c1c(cc(O)c(O)c1O)C2=O | HK-2 co-cultured with HepaRG | MTT | – | 133.33 µM, 48 h | relative to: untreated control | viability | 73 ± 5.96%
CCCN(O)N=Nc1ccc(S(=O)(=O)Nc2onc(C)c2C)cc1 | α-glucosidase, rat intestine | enzyme activity | – | 60 µg/mL, with: 4-nitrophenyl α-D-glucopyranoside | – | inhibition | 17.5 ± 0.09%
CC(C)c1noc2ncc(C(=O)c3ccccc3O)cc12 | Scn2a (Rattus norvegicus, UniProt P04775) | ion current, inhibitor, whole-cell patch clamp | – | 10 µM | – | inhibition | 1% and 5.4% and 11.6% and 6% and 7.5%
O=S(=O)(Nc1nccs1)c1ccc(N=NN(O)c2ccccc2)cc1 | α-glucosidase, rat intestine | enzyme activity | – | 300 µg/mL, with: 4-nitrophenyl α-D-glucopyranoside | – | inhibition | 52.5%
O=C1c2cccc(O)c2C(=O)c2c(O)cc(CO)cc21 | HK-2 co-cultured with HepaRG | MTT | – | 16.67 µM, 48 h | relative to: untreated control | viability | 84 ± 2.89%
CCN(O)N=Nc1ccc(S(=O)(=O)Nc2onc(C)c2C)cc1 | α-glucosidase, rat intestine | enzyme activity | – | 240 µg/mL, with: 4-nitrophenyl α-D-glucopyranoside | – | inhibition | 47.5 ± 0.04%
CC[C@@H]1[C@H](F)C(=O)N[C@@H]1COc1nccc2cc(C(N)=O)c(OC)cc12 | IKBKE (Homo sapiens, UniProt Q14164) | ATP-site probe binding, ActivX profiling | THP-1 cell lysate | 0.2 mM, Lys1 site | – | inhibition | 30.8%

Excerpt of the above:
Structure (SMILES) | tested on | test | system | setting | how to read | endpoint | result
CC(C)c1noc2ncc(C(=O)c3ccccc3O)cc12 | Scn2a (Rattus norvegicus, UniProt P04775) | ion current, inhibitor, whole-cell patch clamp | – | 10 µM | – | inhibition | 1% and 5.4% and 11.6% and 6% and 7.5%
